Published values of several laboratories.
Values joined by “and” are separate records of one study, mostly repeats; a detail may differ. ± marks the error that the study gave.
uncharacterized protein: uncharacterized protein (Bradysia odoriphaga, UniProt A0A2S0X9G4)
Alpha-1-acid glycoprotein 2: Alpha-1-acid glycoprotein 2 (Homo sapiens, UniProt P19652)
Chain of UniProt P19652 (whole entry, looked up): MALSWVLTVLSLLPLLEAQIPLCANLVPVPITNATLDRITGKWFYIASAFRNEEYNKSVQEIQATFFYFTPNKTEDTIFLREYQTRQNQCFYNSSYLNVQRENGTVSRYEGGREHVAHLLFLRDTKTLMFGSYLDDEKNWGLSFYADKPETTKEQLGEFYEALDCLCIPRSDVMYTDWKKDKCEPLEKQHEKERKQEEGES
MAPT PSP brain aggregates: Microtubule-associated protein tau, PSP brain aggregates (MAPT, Homo sapiens, UniProt P10636)
Chain of UniProt P10636 (whole entry, looked up): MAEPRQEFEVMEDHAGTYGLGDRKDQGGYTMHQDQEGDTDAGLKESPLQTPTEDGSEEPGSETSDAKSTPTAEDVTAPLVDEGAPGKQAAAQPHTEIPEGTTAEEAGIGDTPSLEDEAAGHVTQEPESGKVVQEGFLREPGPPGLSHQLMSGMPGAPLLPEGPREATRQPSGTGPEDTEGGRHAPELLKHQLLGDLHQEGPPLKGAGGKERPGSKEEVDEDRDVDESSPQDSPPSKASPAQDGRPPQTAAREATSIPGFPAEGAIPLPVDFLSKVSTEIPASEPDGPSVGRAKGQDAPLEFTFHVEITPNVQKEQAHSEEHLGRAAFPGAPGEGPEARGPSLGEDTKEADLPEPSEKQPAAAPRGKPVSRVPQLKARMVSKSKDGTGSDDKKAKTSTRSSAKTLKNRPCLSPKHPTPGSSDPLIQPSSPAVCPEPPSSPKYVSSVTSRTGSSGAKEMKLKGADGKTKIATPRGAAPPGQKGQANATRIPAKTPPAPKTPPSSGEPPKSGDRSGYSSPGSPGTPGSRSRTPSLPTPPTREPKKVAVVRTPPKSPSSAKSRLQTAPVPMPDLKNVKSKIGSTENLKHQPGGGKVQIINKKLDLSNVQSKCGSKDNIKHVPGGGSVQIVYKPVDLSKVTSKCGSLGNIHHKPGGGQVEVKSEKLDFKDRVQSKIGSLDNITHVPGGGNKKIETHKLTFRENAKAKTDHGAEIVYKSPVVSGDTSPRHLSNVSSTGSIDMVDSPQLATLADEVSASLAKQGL
TMEM97: Sigma intracellular receptor 2 (TMEM97, Homo sapiens, UniProt Q5BJF2)
Chain of UniProt Q5BJF2 (whole entry, looked up): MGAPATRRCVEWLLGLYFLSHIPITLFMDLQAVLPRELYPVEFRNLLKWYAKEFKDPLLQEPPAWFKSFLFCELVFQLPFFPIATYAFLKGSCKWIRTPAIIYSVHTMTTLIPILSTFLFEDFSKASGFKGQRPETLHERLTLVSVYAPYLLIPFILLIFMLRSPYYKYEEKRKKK
Chain of UniProt P35367 (whole entry, looked up): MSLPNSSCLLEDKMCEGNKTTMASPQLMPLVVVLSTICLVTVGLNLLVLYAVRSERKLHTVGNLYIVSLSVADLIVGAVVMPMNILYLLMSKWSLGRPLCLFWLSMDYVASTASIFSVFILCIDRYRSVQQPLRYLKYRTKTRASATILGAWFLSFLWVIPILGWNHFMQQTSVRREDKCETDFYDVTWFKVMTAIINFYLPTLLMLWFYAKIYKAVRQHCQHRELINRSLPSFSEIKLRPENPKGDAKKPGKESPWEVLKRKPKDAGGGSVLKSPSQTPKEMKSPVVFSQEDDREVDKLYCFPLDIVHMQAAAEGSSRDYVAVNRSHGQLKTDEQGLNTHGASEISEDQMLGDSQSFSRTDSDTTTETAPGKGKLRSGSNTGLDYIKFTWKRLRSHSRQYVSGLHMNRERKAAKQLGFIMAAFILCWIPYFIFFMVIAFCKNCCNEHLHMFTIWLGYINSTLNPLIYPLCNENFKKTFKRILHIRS
Chain of UniProt O60658 (whole entry, looked up): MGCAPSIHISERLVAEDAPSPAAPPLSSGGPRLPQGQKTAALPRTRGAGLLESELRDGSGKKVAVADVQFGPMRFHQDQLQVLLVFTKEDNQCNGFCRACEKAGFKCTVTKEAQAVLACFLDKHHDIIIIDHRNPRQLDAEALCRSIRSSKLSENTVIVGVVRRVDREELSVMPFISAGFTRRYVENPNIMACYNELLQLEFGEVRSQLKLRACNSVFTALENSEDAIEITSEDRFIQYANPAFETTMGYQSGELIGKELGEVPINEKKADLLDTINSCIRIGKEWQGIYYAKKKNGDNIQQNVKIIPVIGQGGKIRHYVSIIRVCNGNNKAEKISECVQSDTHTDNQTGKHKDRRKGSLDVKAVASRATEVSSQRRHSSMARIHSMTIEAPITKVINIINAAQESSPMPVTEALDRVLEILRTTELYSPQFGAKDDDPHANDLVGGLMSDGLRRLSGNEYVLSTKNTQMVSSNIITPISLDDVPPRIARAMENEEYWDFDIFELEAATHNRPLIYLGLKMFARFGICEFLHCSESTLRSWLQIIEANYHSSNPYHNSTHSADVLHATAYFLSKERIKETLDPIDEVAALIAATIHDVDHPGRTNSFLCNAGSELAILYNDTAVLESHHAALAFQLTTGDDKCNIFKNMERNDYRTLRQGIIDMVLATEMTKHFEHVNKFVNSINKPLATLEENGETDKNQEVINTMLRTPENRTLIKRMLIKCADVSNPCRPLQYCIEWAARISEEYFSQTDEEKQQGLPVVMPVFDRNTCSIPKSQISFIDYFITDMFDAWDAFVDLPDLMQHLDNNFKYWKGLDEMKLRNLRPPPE
Chain of UniProt P15823 (whole entry, looked up): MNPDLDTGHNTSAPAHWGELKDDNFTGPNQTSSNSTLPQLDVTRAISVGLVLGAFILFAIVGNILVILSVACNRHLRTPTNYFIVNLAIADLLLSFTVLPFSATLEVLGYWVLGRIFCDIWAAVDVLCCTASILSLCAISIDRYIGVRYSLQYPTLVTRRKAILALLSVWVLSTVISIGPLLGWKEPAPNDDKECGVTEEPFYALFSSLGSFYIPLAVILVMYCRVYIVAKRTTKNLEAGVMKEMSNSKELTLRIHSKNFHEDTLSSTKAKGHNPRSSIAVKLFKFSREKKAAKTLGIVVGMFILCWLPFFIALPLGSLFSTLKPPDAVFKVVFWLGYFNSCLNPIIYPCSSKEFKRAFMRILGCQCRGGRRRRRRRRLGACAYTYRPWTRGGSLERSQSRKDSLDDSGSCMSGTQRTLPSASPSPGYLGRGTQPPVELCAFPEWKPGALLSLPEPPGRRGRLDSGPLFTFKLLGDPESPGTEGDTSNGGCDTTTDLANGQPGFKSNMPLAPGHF
Chain of UniProt Q60492 (whole entry, looked up): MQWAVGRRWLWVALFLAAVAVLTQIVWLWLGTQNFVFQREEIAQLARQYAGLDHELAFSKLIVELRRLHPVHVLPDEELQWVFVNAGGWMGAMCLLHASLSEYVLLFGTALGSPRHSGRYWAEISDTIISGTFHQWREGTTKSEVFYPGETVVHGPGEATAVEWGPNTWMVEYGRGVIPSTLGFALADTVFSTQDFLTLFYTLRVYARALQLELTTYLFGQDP
Chain of UniProt P00388 (whole entry, unmodified, looked up): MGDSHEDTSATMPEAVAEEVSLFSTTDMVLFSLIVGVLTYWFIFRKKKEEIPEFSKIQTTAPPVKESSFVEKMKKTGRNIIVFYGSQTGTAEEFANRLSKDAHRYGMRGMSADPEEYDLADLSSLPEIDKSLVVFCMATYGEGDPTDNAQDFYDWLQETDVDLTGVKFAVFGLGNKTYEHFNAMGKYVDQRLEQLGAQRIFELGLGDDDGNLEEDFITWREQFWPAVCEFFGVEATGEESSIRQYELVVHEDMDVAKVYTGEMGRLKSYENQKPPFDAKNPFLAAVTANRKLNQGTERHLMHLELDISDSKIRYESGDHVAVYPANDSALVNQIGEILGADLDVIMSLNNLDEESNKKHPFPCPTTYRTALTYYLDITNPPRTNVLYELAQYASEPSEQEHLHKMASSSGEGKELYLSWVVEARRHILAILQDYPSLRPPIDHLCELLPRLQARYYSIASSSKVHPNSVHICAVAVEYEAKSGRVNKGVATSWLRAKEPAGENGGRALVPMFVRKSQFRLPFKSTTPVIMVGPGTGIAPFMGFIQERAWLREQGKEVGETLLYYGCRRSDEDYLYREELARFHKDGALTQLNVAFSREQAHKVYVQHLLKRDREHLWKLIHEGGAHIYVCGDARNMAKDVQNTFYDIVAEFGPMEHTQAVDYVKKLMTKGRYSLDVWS
Chain of UniProt P0AG16 (whole entry, looked up): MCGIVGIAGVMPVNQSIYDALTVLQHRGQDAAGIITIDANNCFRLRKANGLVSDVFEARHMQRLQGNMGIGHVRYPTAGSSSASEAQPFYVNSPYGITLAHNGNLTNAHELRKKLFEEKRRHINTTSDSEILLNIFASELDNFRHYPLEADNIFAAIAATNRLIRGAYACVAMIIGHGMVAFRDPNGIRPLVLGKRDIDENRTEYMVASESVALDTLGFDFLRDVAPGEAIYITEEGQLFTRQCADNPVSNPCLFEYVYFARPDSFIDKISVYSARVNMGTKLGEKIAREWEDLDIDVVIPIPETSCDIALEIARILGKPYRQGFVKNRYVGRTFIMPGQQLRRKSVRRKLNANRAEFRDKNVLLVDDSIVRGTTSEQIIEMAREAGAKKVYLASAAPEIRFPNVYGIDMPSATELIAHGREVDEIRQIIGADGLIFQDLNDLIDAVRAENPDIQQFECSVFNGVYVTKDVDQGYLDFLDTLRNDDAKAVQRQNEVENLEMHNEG

Compound | target | test | test system | setting | Ki
CCCCC(C)=O | uncharacterized protein | binding, competitive fluorescence displacement | – | – | > 50 µM
Cc1ccc([C@H]2C[C@@H]2COc2cc(NCc3nnc(C)s3)nc(C)n2)nc1 | High affinity cAMP-specific and IBMX-insensitive 3',5'-cyclic phosphodiesterase 8A (PDE8A, Homo sapiens, UniProt O60658) | enzyme activity, inhibitor, IMAP fluorescence polarization | – | isoform PDE8A1, together with: cAMP substrate | > 50 µM
COc1cc2c(cc1OC)CN(C(C)CCc1ccc(O)cc1)CC2 (stereo not drawn) | Sigma non-opioid intracellular receptor 1 (SIGMAR1, Cavia porcellus, UniProt Q60492) | binding, [3H](+)-pentazocine displacement | guinea pig brain homogenate | – | 0.108 ± 0.035 µM
Cc1ccc2oc(=O)cc(NCCO)c2c1 | Alpha-1B adrenergic receptor (Adra1b, Rattus norvegicus, UniProt P15823) | – | – | – | 63.1 µM
COc1ccc(Cl)cc1C(=O)NCCc1ccc(S(=O)(=O)NC(=O)NC2CCCCC2)cc1 | Alpha-1-acid glycoprotein 2 | competitive inhibitor, ultrafiltration | – | 15 min, 37 °C, together with: [3H]S-disopyramide | 40 µM
Cc1ccc(C(C)C)cc1O | uncharacterized protein | binding, competitive fluorescence displacement | – | – | > 50 µM
Fc1ccc(-c2ccc3c(n2)[nH]c2ccncc23)c(F)n1 | MAPT PSP brain aggregates | binding | PSP human brain tissue | together with: [3H]PI-2620 | 0.0346 µM
CC(=O)[C@H]1CC[C@H]2[C@@H]3CCC4=CC(=O)CC[C@]4(C)[C@H]3CC[C@]12C | Alpha-1-acid glycoprotein 2 | competitive inhibitor, ultrafiltration | – | 15 min, 37 °C, together with: [3H]S-disopyramide | 58.3 µM
O=c1n(CCCN2CCN(c3cccc(Cl)c3)CC2)nc2ccccn12 | TMEM97 | – | – | – | > 10 µM
Clc1ccc(COC(Cn2ccnc2)c2ccc(Cl)cc2Cl)c(Cl)c1 (stereo not drawn) | Alpha-1-acid glycoprotein 2 | competitive inhibitor, ultrafiltration | – | 15 min, 37 °C, together with: [3H]S-disopyramide | 19 µM
Fc1cc(-c2ccc3c(n2)[nH]c2ccncc23)ccn1 | Microtubule-associated protein tau, AD brain aggregates (MAPT, Homo sapiens, UniProt P10636) | – | Alzheimer's disease brain homogenate | together with: [3H]asyn-44 | > 10 µM
O=C(c1ccc(CNCCCN2CCN(C3CCCCC3)CC2)cc1)c1ccc([N+](=O)[O-])cc1 | TMEM97 | radioligand binding | RT-4 cell membranes | together with: 10 nM [3H]-DTG, 100 nM (+)-pentazocine | 0.0333 µM
CNC(=O)[C@@]12C[C@@H]1[C@@H](n1cnc3c(NC)nc(C#C[c-]4cccc4)nc31)[C@H](O)[C@@H]2O.[Fe+2].c1cc[cH-]c1 | Histamine H1 receptor (HRH1, Homo sapiens, UniProt P35367) | radioligand binding (PDSP) | – | – | 0.085 µM
CC12CCC(CC1)C(C)(C)O2 | uncharacterized protein | binding, competitive fluorescence displacement | – | – | > 50 µM
Fc1ncccc1-c1cc2[nH]c3ccncc3c2cn1 | MAPT PSP brain aggregates | binding | PSP human brain tissue | together with: [3H]PI-2620 | < 0.01 µM and 0.0071 µM
O=C(CCCCC1SC[C@@H]2NC(=O)N[C@H]12)NCCCN(CCCN1CCN(C2CCCCC2)CC1)CC(=O)Nc1ccc(C(=O)c2ccccc2)cc1 (stereo in doubt) | TMEM97 | radioligand binding | RT-4 cell membranes | together with: 10 nM [3H]-DTG, 100 nM (+)-pentazocine | 0.0865 µM
CCCCCCCC=O | uncharacterized protein | binding, competitive fluorescence displacement | – | – | > 50 µM
NC(=O)c1ccc[n+]([C@@H]2O[C@H](COP(=O)(O)OP(=O)(O)OC[C@H]3O[C@@H](n4cnc5c(N)ncnc54)[C@H](OP(=O)(O)O)[C@@H]3O)[C@@H](O)[C@H]2O)c1 | NADPH--cytochrome P450 reductase (Rattus norvegicus, UniProt P00388, del2-56/W677G) | cytochrome c reduction, inhibitor | – | together with: NADPH | 4.73 ± 0.5 µM
CCCCC=O | uncharacterized protein | binding, competitive fluorescence displacement | – | – | > 50 µM
CSc1ccc2c(c1)N(CCC1CCCCN1C)c1ccccc1S2 (stereo not drawn) | Alpha-1-acid glycoprotein 2 | competitive inhibitor, ultrafiltration | – | 15 min, 37 °C, together with: [3H]S-disopyramide | 0.81 µM
CCCCCCCCCCCC=O | uncharacterized protein | binding, competitive fluorescence displacement | – | – | > 50 µM
CN[C@@H]1CN2[C@@H](Cc3ccc(OC)cc3)[C@@H](O)[C@H]3C[C@@]2(CC[C@@H]3OP(=O)(O)O)C1 | Amidophosphoribosyltransferase (purF, Escherichia coli, UniProt P0AG16) | enzyme activity | – | together with: glutamine and PRPP | 0.0601 ± 0.0004 µM
C=C1CC/C=C(/C)CC[C@@H]2[C@@H]1CC2(C)C | uncharacterized protein | binding, competitive fluorescence displacement | – | – | > 50 µM
Fc1ncccc1-c1ccc2c(n1)[nH]c1ccncc12 | MAPT PSP brain aggregates | binding | PSP human brain tissue | together with: [3H]PI-2620 | 0.0062 µM

For quick reference, copied from above:
Compound | target | test | test system | setting | Ki
Cc1ccc([C@H]2C[C@@H]2COc2cc(NCc3nnc(C)s3)nc(C)n2)nc1 | High affinity cAMP-specific and IBMX-insensitive 3',5'-cyclic phosphodiesterase 8A (PDE8A, Homo sapiens, UniProt O60658) | enzyme activity, inhibitor, IMAP fluorescence polarization | – | isoform PDE8A1, together with: cAMP substrate | > 50 µM
COc1cc2c(cc1OC)CN(C(C)CCc1ccc(O)cc1)CC2 (stereo not drawn) | Sigma non-opioid intracellular receptor 1 (SIGMAR1, Cavia porcellus, UniProt Q60492) | binding, [3H](+)-pentazocine displacement | guinea pig brain homogenate | – | 0.108 ± 0.035 µM
Cc1ccc2oc(=O)cc(NCCO)c2c1 | Alpha-1B adrenergic receptor (Adra1b, Rattus norvegicus, UniProt P15823) | – | – | – | 63.1 µM
COc1ccc(Cl)cc1C(=O)NCCc1ccc(S(=O)(=O)NC(=O)NC2CCCCC2)cc1 | Alpha-1-acid glycoprotein 2 | competitive inhibitor, ultrafiltration | – | 15 min, 37 °C, together with: [3H]S-disopyramide | 40 µM
